Measured values pooled from the literature.
Each line is one published result; not all experiments were run side by side. ± gives the spread as reported.

The tumour accumulation of N=C(N)NCCC[C@@H]1NC(=O)[C@@H](NC(=O)CCCCCNC(=O)c2ccc3c(c2)C(=O)OC32c3ccc(O)cc3Oc3cc(O)ccc32)CSSC[C@@H](C(N)=O)NC(=O)[C@H](CC(=O)O)NC(=O)[C@@H]2CCCN2C(=O)CNC(=O)[C@H](CCCCN)NC(=O)[C@H](CC(=O)O)NC(=O)CNC1=O is reported as about 25% (ex vivo fluorescence, item: FAM-labelled peptide; mouse, Lovo-6-luc-1 peritoneal and subcutaneous tumours; intraperitoneal, 0.3 mg, 1 h; baseline: subcutaneous tumours).
C[N+](C)(CCOCCOCCOCCOCCOCCOCCOCCNC(=S)Nc1ccc(CC2CN(CC(=O)[O-])CCN(CC(=O)[O-])CCN2CC(=O)[O-])cc1)C[c-]1cccc1.[64Cu+2].[Fe+2].c1cc[cH-]c1 (stereo not shown) has a tumour uptake of 0.5 ± 0.4 %ID/g (pretargeted biodistribution; nude mouse, BxPC-3 xenograft; 24 h post-radioligand, 72 h lag time).
For CCCC[C@H]1C(=O)N(C)[C@@H](CCCC)C(=O)N[C@@H](CCCCNC(=S)Nc2ccc(CN3CCN(CC(=O)O)CCN(CC(=O)O)CC3)cc2)C(=O)N[C@H](C(=O)NCC(N)=O)CSCC(=O)N[C@@H](Cc2ccc(O)cc2)C(=O)N(C)[C@@H](C)C(=O)N[C@@H](CC(N)=O)C(=O)N2CCC[C@H]2C(=O)N[C@@H](Cc2cnc[nH]2)C(=O)N[C@@H](CCC(=O)O)C(=O)N2C[C@H](O)C[C@H]2C(=O)N[C@@H](Cc2c[nH]c3ccccc23)C(=O)N[C@@H](CO)C(=O)N[C@@H](Cc2cn(CC(=O)O)c3ccccc23)C(=O)N1C [fluorine-18 labelled], the tumour uptake was 10.4 ± 2.63 %ID/g (H2444 subcutaneous xenograft, NSG mouse, tumour; intravenous, 60 min).
For C[N+](C)(CCOCCOCCOCCNC(=S)Nc1ccc(C[C@H]2CN(CC(=O)[O-])CCN(CC(=O)[O-])CCN2CC(=O)[O-])cc1)C[c-]1cccc1.[64Cu+2].[Fe+2].c1cc[cH-]c1, the tumour uptake was 6.9 ± 2.4 %ID/mL (pretargeted PET; nude mouse, BxPC-3 xenograft; 8 h post-radioligand, 72 h lag time).
O=C(CCc1cn([C@@H]2O[C@H](C[18F])[C@@H](O)[C@H](O)[C@H]2O)nn1)Nc1ccc(-c2nnc(-c3ccccn3)nn2)nc1 — result for “tumour to muscle ratio”: 4.8 (BALB/c nude mouse, LS174T xenograft; intravenous, 1 h, with: CC49-TCO 72 h before).
For CCCC[C@H](NC(=O)CNC(=O)CNC(=O)[C@H](CCCCNC(=O)[C@H](CC(=O)O)NC(=O)C(C)c1ccc(CC(C)C)cc1)NC(=O)CN1CCN(CC(=O)O)CCN(CC(=O)O)CCN(CC(=O)O)CC1)C(=O)N[C@H]1CC(=O)NCCCC[C@@H](C(N)=O)NC(=O)[C@H](Cc2c[nH]c3ccccc23)NC(=O)[C@H](CCCNC(=N)N)NC(=O)[C@@H](Cc2ccccc2)NC(=O)[C@H](Cc2c[nH]cn2)NC1=O (stereo partly shown) [lutetium-177 labelled], “tumour to tissue ratio” read 1.26 (C57 mouse; intravenous, 2 h, with: NDP-MSH blockade; baseline: tumour over liver).
[18F]CCn1cc(COc2ccc(-c3nncnn3)cc2)nn1: “tumour to blood ratio” 0.76 (PET imaging; BALB/c nude mouse, LS174T xenograft, tumour, heart as blood; intravenous, 1 h, with: CC49-TCO 72 h before; baseline: tumour over heart).
With O=C([O-])CN1CCN(CC(=O)[O-])CCN(CC(=O)NCC2CCC(C(=O)NC(Cc3ccc4ccccc4c3)C(=O)NCCCCC(NC(=O)NC(CCC(=O)O)C(=O)O)C(=O)O)CC2)CCN(CC(=O)[O-])CC1.[68Ga+3] (stereo not shown) the tumour uptake was 1 ± 0.53 %ID/g (ex vivo biodistribution; mouse 22Rv1 xenograft, tumour; 4 h post-injection).
For O=C(CCc1cn(CCOCCOCCOCC[18F])nn1)Nc1ccc(-c2nnc(-c3ccccn3)nn2)nc1, “tumour to muscle ratio” read 2.3 (BALB/c nude mouse, LS174T xenograft; intravenous, 1 h, with: CC49-TCO 72 h before).
For Cc1n[nH]c(C)c1CCCOc1cc(C(=O)NCCCCC(NC(=O)CN2CCN(CC(=O)[O-])CCN(CC(=O)[O-])CCN(CC(=O)[O-])CC2)C(=O)NCC2CCC(C(=O)NC(Cc3ccc4ccccc4c3)C(=O)NCCCCC(NC(=O)NC(CCC(=O)O)C(=O)O)C(=O)O)CC2)ccc1F.[68Ga+3] (stereo not shown), the tumour uptake was 6.08 ± 0.78 %ID/g (ex vivo biodistribution; mouse 22Rv1 xenograft, tumour; 4 h post-injection).
